Published values from different studies.
Numbered parts are unrelated; each lists some results of a single study.

Block 1
Target: RNA binding protein fox-1 homolog 2, RRM domain, GST-SBP tag (RBFOX2, Homo sapiens, UniProt O43251-10, residues 100-194)
Technique: RNA Bind-n-Seq
Form: RNA
Matrix: in vitro
Concentration: 365 nM
Setting: natural RNA segment, single round, ends assumed
Baseline: no-protein control
Direction: higher = stronger binding
Endpoint: RBNS enrichment (R)
Shared flanks, not repeated: GGGAGUUCUACAGUCCGACGAUC … UGGAAUUCUCGGGUGCCAA
Residues (chain): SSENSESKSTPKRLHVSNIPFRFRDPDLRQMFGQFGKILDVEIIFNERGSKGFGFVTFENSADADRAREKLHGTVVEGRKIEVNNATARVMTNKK
CUGCCUUUUGUGAUACUUCCUGUGCUCCCUCAGAGAGAAACGGAGUGACCUUUUGUCCUUUACCUGAUUGGCACUUCGCAGUCUAUCUCCCUGGGUAGCAGACGGCUGCU: 0.307
UGUCUCACAGCCCUGGGGACACCUGCCCAGUGGGCCCCAGCCCUACAGGGACUGGGCAAAGAUGAUGUUUCCAGAUUACACUCCAGCCUGAGUCAGCACCCCUCCUAGCA: 1.7
AAGUUAUCCCACUGGGUUUAAAAGCAUCUUGAAUGUAUAACCCUUCUGUAACCCAGGCUGGUCUUUGCUUUUACUGAACAUCCAAACGUUAUUUAUAUUUUAAUUUUAUG: 1.06
CUCCCGGUCCUCCACGCGGACCACUAUGCUUCCCCACCGCAGCAGGCGACCGCGGCGCAGCUCCCACCCCGCCCUGCCCGGCCCCGAGCGCUUGCCCGAGGCCAGCGCGC: 0.343
CUUGAUUAAACAGUUUUUCUUGUUGCACAGUCCUAAUUUCAUAAGGUCAAGGAGACACUCAGGCAUUCCAGGAAACAAAUGUGUACAUGAUGUUACCAGAAACAGGCAUU: 1.03
AAAAAAUAAGUUCCACAAGAUGGACAAAAAUGGUCCAUGAUAUUUAGCUUAAAUUGUAACCUUUUGUUGUGUAUAUAAAACUUCCUUGGAAGAAAAUAACCUUAUUGUUU: 0.724
UAAGAAUGGUUGUGUUUGGAUACUUGUAAAUGCUGUUUAGUUAGAAAAAGCAUGUUAAGUUGGUAUAAGCAGUGAUUUUAAAUGAUUUUUAAAAAUAAGACGUCCUUCAA: 5.51
AUCCCCGCGUCUGCCUCAGCGGCAGGCCAGUGAGGCGUUUUCCUAGCCUGGAGAUGGGAAAAUAUGCUUGGCAGAGACAGGAAUGCUGUGUGCUUGUUCCAAAUGAGCAG: 0.343
CCUUUGCAGUGAAAAACUUUUUGCUUCAUAUAGUUAAUUAUAUUCAUAUUGAAUGUAUUAACAGAUAGCAGUGCAAAAGCAUUCUUCCCAAGAGAAGAGUGUACCAUGCA: 0.347
UUUACUAACAAGUAGACUAAUGUAGACAUUCACAGACGGGAUAGCGCAGAAGCAUCUUCACACGACAAGUCUCCAAAAAAAAAAAGCUAAUUCAGAGAGGGCGGGAGGAA: 0.897
GUCAGUGUUUGCCUUCGCACCUCCUCCCCUAAAGCAGCGCGGGGGGCAAAUAAGACCCCACCCCUCCCUGCAGCUUCACAGGGACGCUUCCUUCCCUCCCCGCAACCACC: 1.77
CAUCUGUGUUGACAUCGGGGCCAGAAAGCACAGCCAGCUAAAUGGGCCUCUGAGGUCACCUUCCCUUCCGGCCUGCUUGCUUUGUCUUACAAGACUUCUUGGCUUUUCCA: 0.781

Block 2
Target: Centromere-binding protein 1, full length, His-tagged (CBF1, Saccharomyces cerevisiae, UniProt P17106, residues 1-351)
UniProt P17106, sequence (whole entry, looked up): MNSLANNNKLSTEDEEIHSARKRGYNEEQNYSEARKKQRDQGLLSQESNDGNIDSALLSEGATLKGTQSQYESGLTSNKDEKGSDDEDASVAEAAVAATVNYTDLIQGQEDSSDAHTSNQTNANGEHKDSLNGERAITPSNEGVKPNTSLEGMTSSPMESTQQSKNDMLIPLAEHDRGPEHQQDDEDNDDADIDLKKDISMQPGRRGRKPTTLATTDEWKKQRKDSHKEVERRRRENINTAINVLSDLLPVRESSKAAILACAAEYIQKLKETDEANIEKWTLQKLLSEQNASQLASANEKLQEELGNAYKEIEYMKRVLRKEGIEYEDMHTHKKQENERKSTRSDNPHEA
Technique: competition protein-binding microarray
Form: double-stranded DNA, one strand shown
Matrix: in vitro
Concentration: 2 µM
Setting: whole 60-bp probe, lowest competitor level
Added: Pho4 competitor, 0.05 µM
Direction: higher = stronger binding
Endpoint: fluorescence intensity
Shared flanks, not repeated: … GTCTTGATTCGCTTGACGCTGCTG
GTAAAACGCCTCTTCCACGTTGATTGCTTGCTTAGC: 86.2 a.u.
TCACGAATCCTTCTCTAACTTACGTTCAAGAGGTTC: 58.6 a.u.
CTAACGAAGGTTTTTCACGTGTCATACAAGCCAAGT: 1120 a.u.
AAATTACTAAGTTGCTTGGTGGGTGACGCCGTATGA: 56.4 a.u.
GTTTTGAATGTTTTCCTCGTGTGGAAGTAGAGTAGG: 87.4 a.u.
CTATGAAGACAACATCACCTGGAATGACATCTGGGG: 83.9 a.u.
ATTAAAAAGTGGATAATCGTGGGACTTATGGGTAAA: 95.1 a.u.
CTTCTGTAAATTTTTCACGTGGACTGACGCGCCCCG: 595 a.u.
AATGAAGAAAGTTAAACCGTGATGGATTACTTCTTG: 104 a.u.
CGTCCTAGTGATTGCCGAGTGGGTGCCATGAGGAAG: 90.2 a.u.
AAAGCGGTAATTTTTCACGTGGTGTCAAATATCTAT: 1960 a.u.
CTTTCCCGATCTTGCCTAGTGGGTGTAGCACATTTG: 65 a.u.
CTTCTGTAAATTTTTCACGTGACATGAAGCGCCCCG: 4850 a.u.
GGGCCAAGCGAGAGTCACGTGCTTTACAGGCCTGCC: 8830 a.u.
CGATAGGTATAGGATCAGGCTTCACACTTAGTGTTT: 75.2 a.u.
CTTCTGTAAATTTGACGTGTGGGTGGACGCGCCCCG: 96.2 a.u.
GAGAAATAGTCATCGTTTTCAACGGAAGCTGAAATA: 79.4 a.u.

Block 3
Target: Ras GTPase-activating protein-binding protein 1, C-terminal RGG region (G3BP1, Homo sapiens, UniProt Q13283)
UniProt Q13283, sequence (whole entry, looked up): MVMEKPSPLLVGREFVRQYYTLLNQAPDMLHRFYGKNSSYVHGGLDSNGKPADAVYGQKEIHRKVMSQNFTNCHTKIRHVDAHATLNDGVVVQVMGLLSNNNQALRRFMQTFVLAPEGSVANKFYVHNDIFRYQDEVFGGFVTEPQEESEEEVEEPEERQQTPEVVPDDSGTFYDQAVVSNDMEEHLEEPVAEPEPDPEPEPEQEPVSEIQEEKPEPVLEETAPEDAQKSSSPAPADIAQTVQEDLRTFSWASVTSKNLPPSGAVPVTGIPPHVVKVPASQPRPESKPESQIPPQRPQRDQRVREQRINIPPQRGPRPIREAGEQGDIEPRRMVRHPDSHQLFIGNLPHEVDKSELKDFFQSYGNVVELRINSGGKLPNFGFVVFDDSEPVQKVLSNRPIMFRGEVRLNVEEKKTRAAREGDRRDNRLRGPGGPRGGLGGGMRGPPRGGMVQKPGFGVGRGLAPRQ
Technique: RNA Bind-n-Seq
Form: RNA
Matrix: in vitro
Concentration: 1 µM
Setting: whole 134-nt RNA, ends assumed
Added: 150 mM KCl
Baseline: input library
Direction: higher = stronger binding
Endpoint: log2 enrichment
Shared flanks, not repeated: GGGAGUUCUACAGUCCGACGAUC … UGGAAUUCUCGGGUGUCAAGG
CCUGUGCUACACAUCGUAUGUACCGAAUCGUGUGUGUGUGUGUGUGUGUGUGUGUGUGUGUAAAGUAUUAUGUUACGCCGUUCGGAUCUG: 1.51
CACAGACAACACGCACCCACACAGACACAGAGGGAAGGGGUUGGGAUGGGGACAGGGUGCACAGCAAAACGGGGUAGGACCCCAGCCCCU: -0.122
CAAGUCCUGUGCUACACAUCGUAUGUACCGAAUCGGGGCCGGGGCCGGGGCCGGGGAAAGUAUUAUGUUACGCCGUUCGGAUCUGCACUU: -1.58
AAGUCCUGUGCUACACAUCGUAUGUACCGAAUCGGAAAAAAAGGUGGAAAAAAAGGAAAGUAUUAUGUUACGCCGUUCGGAUCUGCACUU: -2.08
ACCAUGCAGGUGGGCAUCUUUGGGUAGUGGGGCAAGGGGGGGAUAGGGAGGGGGGUAACACUUUGGGAACAGGUGGUCCCAGGUCGUUUC: -1.49
CUGUGCUACACAUCGUAUGUACCGAAUCGGCCCCCCCGGGGCCCCCCCGGGGCCCCCCCGGAAAGUAUUAUGUUACGCCGUUCGGAUCUG: -1.76
UUUGCUGUUGUUAACCAUCAAGGGACCUUGGAGAGUGGCCACUACACCAGCUUUAUCCGGCAGCACAAAGACCAGUGGUUCAAGUGUGAC: -1.43
UUAAAGUAGAGGAACAAAAAGAAGAACAGAAGGAGUUAGAGAAAUCUGAAAAAGAAGAGGAUGAGGAUGAUGAUAGGAAAUCUGAAGACG: -1.28
CAAGUCCUGUGCUACACAUCGUAUGUACCGAAUCGGAAAAAGGUUUGGAAAAAGGAAAGUAUUAUGUUACGCCGUUCGGAUCUGCACUUC: -1.89
UCCUGUGCUACACAUCGUAUGUACCGAAUCGGCCCCCCGGGCCCCCCGGGGCCCCCCGGGAAAGUAUUAUGUUACGCCGUUCGGAUCUGC: -1.56
UUUACAAAUAUGCCCAAGACUUCUUGGUGGCUAUUGCAGAGCCAGUGUGCCGACCAACCCAUGUGCAUGAGUACAAACUAACUGCCUACU: -0.346
ACCAUGCAGGUGGGCAUCUUUGGGAAGUGGGGCAAGGGGGGGAUAGGGAGGGGGGUAACACUUUGAAAACAGGUGGUCCCAGGUCGUUUC: -1.15
AGUCCUGUGCUACACAUCGUAUGUACCGAAUCGGGGUGGGGAAAGGGGAAAAAGGGGAAAGUAUUAUGUUACGCCGUUCGGAUCUGCACU: 1.13
UGGCCCGCCGUCCUGAGGAAGCUGAGGUUCACUGCGGUGCCCAAGAACCACCAGGCGGUCCGGAACCCGUGAGCGGCUGCCAGGGGCUCU: -0.108

Block 4
Target: Histone acetyltransferase KAT6A, winged helix 2, GST fusion (KAT6A, Homo sapiens, UniProt Q92794, residues 85-181)
Technique: protein binding microarray
Form: double-stranded DNA, one strand shown
Matrix: in vitro
Concentration: not given
Setting: 8-mer, flanks averaged, mean of 2 arrays, mostly near background
Baseline: not given
Direction: higher = stronger binding
Endpoint: E-score
Residues (chain): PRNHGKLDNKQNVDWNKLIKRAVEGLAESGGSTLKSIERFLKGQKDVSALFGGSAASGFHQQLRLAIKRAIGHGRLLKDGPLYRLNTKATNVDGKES
ACGACGGG: 0.119
AAGGACCT: 0.0962
CGGTTGTC: 0.0354
GCTCCACA: -0.064
GCAGCACC: 0.0831
ATCAGGCC: 0.00509
GGCGAATA: 0.125
CCTCACCC: 0.105
GCTTACAC: 0.0536
ATCATGTA: -0.0934
AGGGTACA: -0.18
AAACCCCG: 0.0199
CAGGAACC: -0.0506
CGGTCGAA: 0.0413
ACAGGGGG: -0.0222
ACTAACTG: -0.214

Some of these lines once more (block 4):
ATCATGTA: -0.0934
CGGTCGAA: 0.0413
CCTCACCC: 0.105
AGGGTACA: -0.18
ACGACGGG: 0.119
AAACCCCG: 0.0199
ACAGGGGG: -0.0222
ACTAACTG: -0.214
